# Published values of several laboratories.
# ± gives the spread as reported.
SMILES,cell line,test,test system,conditions,EC50 [µM]
CN(Cc1ccc(/C=C/C(=O)NO)cc1)CC12CC3CC(CC(C3)C1)C2,PNC,"histone H4K12 acetylation, measured: H4K12ac",,,0.1
FC(F)(F)c1ccnc(-c2cc(C(F)(F)F)ccn2)c1.FC(F)(F)c1ccnc(-c2cc(C(F)(F)F)ccn2)c1.[Cl-].[Cl-].[Ru+2].c1csc(-c2ccc(-c3ccc(-c4ccc(-c5nc6c7cccnc7c7ncccc7c6[nH]5)s4)s3)s2)c1,SK-MEL-28,"cell viability, resazurin",,"visible light, hypoxia 1% O2, lowest over replicates",0.035
[Ru+2].c1ccc(-c2ccc3c(n2)c2ncccc2c2nc4cc5ccccc5cc4nc32)nc1.c1ccc(-c2ccc3c(n2)c2ncccc2c2nc4cc5ccccc5cc4nc32)nc1,MCF-10A,"cell viability, MTT",,"1 h, blue light 56 J/cm2",> 25
O=C1NCCN1C[C@H](O)Cn1c2ccc(F)cc2c2cc(F)ccc21,sample A glioblastoma stem cells,viability,,72 h,36.9
COc1ccc([C@@H]2C3CCCN3[C@@]3(c4ccccc4-c4nc5ccccc5nc43)[C@H]2C(=O)c2nc3ccccc3[nH]2)cc1 (stereo partly drawn),WI-38,"cytotoxicity, MTT",,72 h,0.45 ± 0.016
CCCCCCCCCCCCCCCC(=O)N[C@@H](CCC(=O)NCCCC[C@H](NC(=O)[C@H](CC(=O)O)NC(=O)[C@H](CO)NC(=O)[C@@H](NC(=O)[C@H](Cc1ccccc1)NC(=O)[C@@H](NC(=O)CNC(=O)[C@H](CCC(N)=O)NC(=O)[C@H](CO)NC(=O)[C@@H](N)Cc1c[nH]cn1)[C@@H](C)O)[C@@H](C)O)C(=O)N[C@@H](CO)C(=O)N[C@@H](CCC(=O)O)C(=O)N[C@@H](Cc1ccc(O)cc1)C(=O)N[C@@H](CC(C)C)C(=O)N[C@@H](CC(=O)O)C(=O)N[C@@H](CO)C(=O)N[C@@H](CCC(=O)O)C(=O)N[C@@H](CCCNC(=N)N)C(=O)N[C@@H](C)C(=O)N[C@@H](CCCNC(=N)N)C(=O)N[C@@H](CC(=O)O)C(=O)N[C@@H](Cc1ccccc1)C(=O)N[C@H](C(=O)N[C@@H](C)C(=O)N[C@@H](Cc1c[nH]c2ccccc12)C(=O)N[C@@H](CC(C)C)C(=O)N[C@@H](CCC(=O)O)C(=O)N[C@@H](C)C(=O)NCC(=O)NCC(=O)O)C(C)C)C(=O)O,rat INS-1 832/3 β-cells,"cAMP accumulation, agonist",,added: 0.1% BSA,0.000226 ± 6.6e-05
Cc1ccc2c(n1)c1nc(C)ccc1c1nc3cc4ccccc4cc3nc21.[Ru+2].c1ccc(-c2cccc(-c3ccccn3)n2)nc1.c1ccncc1,MCF-10A,"cell growth or viability, MTT",,dark,> 25
O=C(CCc1ccc(CNC(C(=O)OC2CCCC2)C2CCCCC2)cn1)NO (stereo not drawn),monocytes,"global acetylation, flow cytometry",human whole blood,4 h,0.158
C(=C/c1ccccc1)/c1ccccc1,U-937,"apoptosis, Hoechst nuclear staining",,"24 h, 50% apoptosis induction",20
CSCc1ccccn1.F[P-](F)(F)(F)(F)F.F[P-](F)(F)(F)(F)F.[Ru+2].c1ccc(-c2ccccn2)nc1.c1ccc(-c2ccnc3c2ccc2c(-c4ccccc4)ccnc23)cc1,A549 monolayer,"cell growth, SRB",,dark,59
CC1OC2OC3C4=C(OC3(C)C12O)C(=O)c1c(O)cccc1C4=O (stereo not drawn),MDA-MB-231,"viability, MTT",,48 h,3.78
C/C(=N\NC(=O)c1cccc(S(=O)(=O)N2CCOCC2)c1)c1cc(Cl)ccc1O,TF-1a,"cell growth or viability, resazurin",,96 h,1.62

# Repeated from above:
SMILES,cell line,test,test system,conditions,EC50 [µM]
C/C(=N\NC(=O)c1cccc(S(=O)(=O)N2CCOCC2)c1)c1cc(Cl)ccc1O,TF-1a,"cell growth or viability, resazurin",,96 h,1.62
